Published values pooled from the literature.
Numbered parts are unrelated; each lists some results of a single study. Substitutions count along the parent as printed.

Sample 1 — target: CCNB2, cyclin fold, Cln2 fusion (human); technique: yeast growth competition, sequencing; sample: yeast; notes: weak parent motif; reference: not given; reading: higher = stronger binding
Starting sequence: SCAPER docking peptide (human); SNARRSLNFGGST; partner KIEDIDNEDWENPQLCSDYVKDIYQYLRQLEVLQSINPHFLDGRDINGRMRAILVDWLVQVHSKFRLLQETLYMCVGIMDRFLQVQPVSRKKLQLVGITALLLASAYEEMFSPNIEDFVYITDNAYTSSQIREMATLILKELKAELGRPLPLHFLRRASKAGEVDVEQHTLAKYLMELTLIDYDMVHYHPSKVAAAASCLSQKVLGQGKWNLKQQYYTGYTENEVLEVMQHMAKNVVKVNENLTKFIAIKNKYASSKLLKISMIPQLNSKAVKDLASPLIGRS
For `SNARRSLFFGGST [N8F]`, “normalised enrichment score” read 0.272.
For `SNCRRSLNFGGST [A3C]`, “normalised enrichment score” read 0.0172.
`SNARRSLNFGGSY [T13Y]` — result for “normalised enrichment score”: -0.174.
`SNARRSLNQGGST [F9Q]` — result for “normalised enrichment score”: 0.144.
`SNARRSLNFGGDT [S12D]` — result for “normalised enrichment score”: 0.301.
`SNPRRSLNFGGST [A3P]`: “normalised enrichment score” 0.135.
Under “normalised enrichment score”, `DNARRSLNFGGST [S1D]` is recorded as 0.221.
For `SNLRRSLNFGGST [A3L]`, “normalised enrichment score” read 0.206.
`SNARRGLNFGGST [S6G]` — result for “normalised enrichment score”: 0.567.

Sample 2 — technique: RNA Bind-n-Seq; molecule type: RNA; sample: in vitro; concentration: 200 nM; notes: whole 134-nt RNA, ends assumed; added: 150 mM LiCl; reference: input library; reading: higher = stronger binding; each molecule: 7-deaza-guanosine replaces G
Target: Fragile X messenger ribonucleoprotein 1, C-terminal low-complexity region (Fmr1, Mus musculus, UniProt P35922)
`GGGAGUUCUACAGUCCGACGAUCUGGGCGGCUGCGAGAUGAGAACGGACGACCCUACUCGCCCAGUCAGUAUGCGCUCCAGUACGCCGGGGACGGCAGUGUCCUCCUCAUCCCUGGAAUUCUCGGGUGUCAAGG` gave a log2 enrichment of 0.0566.
`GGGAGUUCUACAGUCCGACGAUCUCAAGUCCUGUGCUACACAUCGUAUGUACCGAAUCGGAAAGGAAAAAAAGGUGGAAAGUAUUAUGUUACGCCGUUCGGAUCUGCACUUCCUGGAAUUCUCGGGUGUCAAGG` gave a log2 enrichment of -0.926.
With `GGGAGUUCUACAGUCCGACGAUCUGGCCCUGGUGGCAUGCGGGGAGGAAGAGGUGCCCUCAUGGAUCGUGGUGGUCCCGGUGGAAUGUUCAGAGGUGGCCGUGGUGGAGACAGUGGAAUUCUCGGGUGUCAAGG` the log2 enrichment was 1.02.
`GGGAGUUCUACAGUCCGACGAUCACCAUGCAGAUGGGCAUCUUUGGGAAGUGGGGCAAGGGGGGGAUAGGGAGGGGGGUAACACUUUGGGAACAGGUGGUCCCAGGUCGUUUCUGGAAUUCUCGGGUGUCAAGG` has a log2 enrichment of 1.41.
For `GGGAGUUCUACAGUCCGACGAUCGUCCUGUGCUACACAUCGUAUGUACCGAAUCGGAAAAAAGGGAAAAAAGGAAAAAAGGAAAGUAUUAUGUUACGCCGUUCGGAUCUGCACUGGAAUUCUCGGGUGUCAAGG`, the log2 enrichment was -0.53.
`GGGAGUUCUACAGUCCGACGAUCUAACUUUAGAGGAGGAUCUGAUGGAUAUGGCAUUGGACGUGGAUUUGGGGAUGGCUAUAAUGGGUAUGGAGGAGGACCUGGAGGUGGCAAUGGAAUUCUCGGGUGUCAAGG` gave a log2 enrichment of 0.116.
For `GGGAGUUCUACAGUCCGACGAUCCCUGUGCUACACAUCGUAUGUACCGAAUCGGGAAAAAAAGGAAAAAAAGGAAAAAAAGGGAAAGUAUUAUGUUACGCCGUUCGGAUCUGCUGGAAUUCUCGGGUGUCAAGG`, the log2 enrichment was -0.627.

Sample 3 — technique: protein-binding microarray; molecule type: double-stranded DNA, one strand shown; sample: in vitro; concentration: 2200 nM top; notes: 60-bp whole probe; added: salmon DNA 0.4 mg/ml; reference: random background probes; reading: higher = stronger binding; all sequences stand within: GCCTAGCAC … GTCTTGATTCGCTTGACGCTGCTG
Target: Interferon regulatory factor 7, full length, phosphomimetic (IRF7, Homo sapiens, UniProt Q92985, residues 1-503, S471D/S472D/S475D/S476D/S477D/S483D/S484D/S487D)
Residues (chain): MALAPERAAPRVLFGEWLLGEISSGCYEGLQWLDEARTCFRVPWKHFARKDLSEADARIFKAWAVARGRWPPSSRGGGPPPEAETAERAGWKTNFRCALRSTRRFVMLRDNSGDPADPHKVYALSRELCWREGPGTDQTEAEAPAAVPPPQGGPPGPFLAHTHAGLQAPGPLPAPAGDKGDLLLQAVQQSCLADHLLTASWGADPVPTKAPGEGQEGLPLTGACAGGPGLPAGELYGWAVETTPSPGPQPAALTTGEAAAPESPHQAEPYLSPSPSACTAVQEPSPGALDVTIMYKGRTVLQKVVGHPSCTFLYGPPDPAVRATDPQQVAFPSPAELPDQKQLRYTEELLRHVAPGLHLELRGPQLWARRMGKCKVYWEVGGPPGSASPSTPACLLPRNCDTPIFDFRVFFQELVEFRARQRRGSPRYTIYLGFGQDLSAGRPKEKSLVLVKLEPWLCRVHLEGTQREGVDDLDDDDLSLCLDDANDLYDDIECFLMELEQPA
Under “fitted relative affinity”, `TCAGGACTGCTACTGCTTTAGTGCTAG` is recorded as 0.127 z-score.
Under “fitted relative affinity”, `CACACCCGGCTCCTCTGCCAGTGCTAG` is recorded as 0.0268 z-score.
`GACGAACTGAGTATCGTGACGTGCTAG`: “fitted relative affinity” -0.0511 z-score.
`TCCATTTTTACCCTCCTTACGTGCTAG` — result for “fitted relative affinity”: 3.21 z-score.
For `TTAGGACTGGACTTTCGATTAGTGCTA`, “fitted relative affinity” read 3.7 z-score.
`GACGGTTCCGGTTCCGGGACGTGCTAG`: “fitted relative affinity” 2.18 z-score.

Other studies, line by line
For `PhoQ, residues 284 288 289 292 302 303 SCEHLI`, the fold induction was 24.8 (PhoP, residues 12 14 15 18 19 YHFSH (Escherichia coli, UniProt P23836); Sort-seq, item: YFP reporter; E. coli; PhoQ-PhoP variant library, added: 10 µM Mg2+; reference: high Mg2+ state, higher = stronger signaling).

Excerpt of the above (sample 2):
For `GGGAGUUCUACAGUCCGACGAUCCCUGUGCUACACAUCGUAUGUACCGAAUCGGGAAAAAAAGGAAAAAAAGGAAAAAAAGGGAAAGUAUUAUGUUACGCCGUUCGGAUCUGCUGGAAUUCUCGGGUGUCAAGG`, the log2 enrichment was -0.627.
`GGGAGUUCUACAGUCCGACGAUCUGGGCGGCUGCGAGAUGAGAACGGACGACCCUACUCGCCCAGUCAGUAUGCGCUCCAGUACGCCGGGGACGGCAGUGUCCUCCUCAUCCCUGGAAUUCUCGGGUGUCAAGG` gave a log2 enrichment of 0.0566.
With `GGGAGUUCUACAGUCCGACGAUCUGGCCCUGGUGGCAUGCGGGGAGGAAGAGGUGCCCUCAUGGAUCGUGGUGGUCCCGGUGGAAUGUUCAGAGGUGGCCGUGGUGGAGACAGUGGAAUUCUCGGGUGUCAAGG` the log2 enrichment was 1.02.
For `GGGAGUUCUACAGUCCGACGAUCGUCCUGUGCUACACAUCGUAUGUACCGAAUCGGAAAAAAGGGAAAAAAGGAAAAAAGGAAAGUAUUAUGUUACGCCGUUCGGAUCUGCACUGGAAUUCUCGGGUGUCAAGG`, the log2 enrichment was -0.53.
